Experimental data pooled from the literature.
Protocols differ between the studies behind these lines. Several values in a cell are separate wells, animals, samples, runs or records. ± gives the spread as reported.
POLB: DNA polymerase beta (POLB, Homo sapiens, UniProt P06746)
Eif4e: Eukaryotic translation initiation factor 4E (Eif4e, Mus musculus, UniProt P63073)

CCOc1ccc(-c2nc3cc(-c4nc5cc(N6CCN(C)CC6)ccc5[nH]4)ccc3[nH]2)cc1  Kd (HIV-1 SL2 RNA stem-loop; binding, ESI-FTMS titration; pH 7.5): 99.9 ± 12.5 µM
CNCCNC(=O)CN1C(=O)Cc2c([nH]c3ccc(Br)cc23)-c2ccc(Cl)cc21  Kd (Trypanothione synthetase (Leishmania infantum, UniProt A4I2Z3); isothermal titration calorimetry; with: ADP 2 mM): 0.052 µM
Nc1nc2c(ncn2[C@H]2C[C@H](O)[C@@H](COP(=O)(O)OP(=O)(O)C(Br)(Br)P(=O)(O)O)O2)c(=O)[nH]1  Kd (POLB; nucleotide binding, substrate, single turnover kinetics; 37 °C, dG misincorporation opposite A): 67 ± 17 µM
NS(=O)(=O)c1c(F)c(NCCc2ccc(O)cc2)c(SCCO)c(NC2CCCCCCCCCCC2)c1F  Kd (CA2 (Homo sapiens, UniProt P00918, A65S/F130A/I91T/L203N/N67K/V134S); pH 7): 0.22 µM
COc1cccc(OC)c1OCCCn1cc(CCCNc2nc3c(c(=O)[nH]2)[n+](C)cn3C2OC(COP(=O)(O)OP(=O)([O-])OP(=O)(O)OCC3OC(n4cnc5c(=O)[nH]c(N)nc54)C(O)C3O)C(O)C2O)nn1 (stereo not drawn)  Kd (Eif4e; differential scanning fluorimetry): 8.46 µM
O=C1c2sc(-c3ccc(N4CCC(F)C4)nc3F)nc2CCN1c1cccnc1 (stereo not drawn)  Kd (TAR DNA-binding protein 43, aggregated (TARDBP, Homo sapiens, UniProt Q13148); surface plasmon resonance; brain-derived aggregates): 0.06 ± 0.009 µM
Nc1nc2c(ncn2[C@H]2C[C@H](O)[C@@H](COP(=O)(O)OP(=O)(O)[C@@H](Cl)P(=O)(O)O)O2)c(=O)[nH]1  Kd (DNA polymerase beta (POLB, Homo sapiens, UniProt P06746, R183A); substrate, pre-steady-state kinetics; incorporation opposite dC in gapped DNA): 300 ± 96 µM
Cc1cn(C2CC(O)C(COP(=O)(O)OP(=O)(O)C(Br)P(=O)(O)O)O2)c(=O)[nH]c1=O (mixture of isomers)  Kd (DNA polymerase beta (POLB, Homo sapiens, UniProt P06746, I260M); substrate, single turnover kinetics; 37 °C): 6.2 ± 0.5 µM
CS[C@@H]1O[C@H](COS(=O)(=O)O)[C@@H](OS(=O)(=O)O)[C@H](O[C@@H]2O[C@H](C(=O)O)[C@@H](O[C@@H]3O[C@H](COS(=O)(=O)O)[C@@H](OS(=O)(=O)O)[C@H](O[C@@H]4O[C@H](C(=O)O)[C@@H](OS(=O)(=O)O)[C@H](OS(=O)(=O)O)[C@H]4OS(=O)(=O)O)[C@H]3NC(C)=O)[C@H](OS(=O)(=O)O)[C@H]2OS(=O)(=O)O)[C@H]1NC(C)=O  Kd (Interleukin-8 (CXCL8, Homo sapiens, UniProt P10145); ligand displacement, FP): 7.87 µM
Nc1nc2c(ncn2C2CC(O)C(COP(=O)(O)OP(=O)(O)C(F)P(=O)(O)O)O2)c(=O)[nH]1 (mixture of isomers)  Kd (POLB; nucleotide binding, substrate, single turnover kinetics; 37 °C, dG misincorporation opposite A): 786 ± 293 µM
CC[C@H](C)[C@@H]1NC(=O)[C@H](C)NC(=O)[C@H](C)NC(=O)[C@H]([C@@H](C)O)NC(=O)[C@H](Cc2ccccc2)NC(=O)[C@@H]2CSSC[C@@H]3NC(=O)[C@H](C(C)C)NC(=O)[C@H](CCCCN)NC(=O)[C@H](CO)NC(=O)[C@H](CCCCN)NC(=O)[C@@H]4CSSC[C@H](NC(=O)[C@H](CO)NC(=O)[C@H](CCC(=O)O)NC(=O)CNC(=O)[C@H](CSSC[C@H](NC(=O)CNC1=O)C(=O)N[C@@H](CO)C(=O)N4)NC(=O)[C@@H]1CCCN1C(=O)[C@H](Cc1ccccc1)NC(=O)CNC(=O)[C@H](CC(N)=O)NC(=O)[C@H](CCCCN)NC(=O)[C@H](Cc1ccc(O)cc1)NC3=O)C(=O)N[C@@H](C(C)C)C(=O)N[C@@H](Cc1ccc(O)cc1)C(=O)N[C@@H](CC(C)C)C(=O)N1CCC[C@H]1C(=O)N2  Kd (POPC/POPE lipid membrane; membrane binding, surface plasmon resonance; POPC/POPE 80:20 vesicles; pH 7.4): 5.8 ± 0.03 µM
CNc1ccccc1C(=O)O[C@H]1C[C@H](n2cnc3c(N)ncnc32)O[C@@H]1COP(=O)(O)OP(=O)(O)O  Kd (Unconventional myosin-Va (Gallus gallus, UniProt Q02440, D297C/G292C/I296C/S293C/V295G); stopped-flow FRET; 10 °C, with: EDTA 4 mM): 6.24 ± 0.61 µM
CC[C@H](C)[C@H](NC(=O)[C@@H]1CCCN1C(=O)[C@H](Cc1c[nH]cn1)NC(=O)[C@@H](NC(=O)[C@H](Cc1ccc(O)c(I)c1)NC(=O)[C@@H](NC(=O)[C@H](CCCNC(=N)N)NC(=O)CNC)C(C)C)[C@@H](C)CC)C(=O)O [iodine-125 labelled]  Kd (angiotensin II receptor type 1, rat; binding, saturation radioligand binding; female rat, estrus, liver membranes): 0.00042 µM and 0.00093 µM
C[n+]1cn([C@@H]2O[C@H](COP(=O)(O)OP(=O)([O-])OP(=O)(O)OC[C@H]3O[C@@H](n4cnc5c(=O)[nH]c(N)nc54)[C@H](O)[C@@H]3OC(=O)NCCCCCCN)[C@@H](O)[C@H]2O)c2nc(N)nc(O)c21  Kd (Eif4e; cap analogue binding, pyrene fluorescence competition; 20 °C): 0.485 ± 0.092 µM
COC1CCC(N(C(=O)C2CCC(C)CC2)c2cc(C3=CCCCC3)sc2C(=O)O)CC1 (stereo not drawn)  Kd (Probable UDP-N-acetylglucosamine--peptide N-acetylglucosaminyltransferase SPINDLY (SPY, Arabidopsis thaliana, UniProt Q96301); binding, biolayer interferometry; with: SPY wild-type): 29.3 µM
CC[C@H](C)[C@@H]1NC(=O)[C@H](C)NC(=O)[C@H](C)NC(=O)[C@H]([C@@H](C)O)NC(=O)[C@H](Cc2ccccc2)NC(=O)[C@@H]2CSSC[C@@H]3NC(=O)[C@H](C(C)C)NC(=O)[C@H](CCCCN)NC(=O)[C@H](CO)NC(=O)[C@H](CCCCN)NC(=O)[C@@H]4CSSC[C@H](NC(=O)[C@H](CO)NC(=O)[C@H](CCC(=O)O)NC(=O)CNC(=O)[C@H](CSSC[C@H](NC(=O)CNC1=O)C(=O)N[C@@H](CO)C(=O)N4)NC(=O)[C@@H]1CCCN1C(=O)[C@H](Cc1ccccc1)NC(=O)CNC(=O)[C@H](CC(N)=O)NC(=O)[C@H](CCCCN)NC(=O)[C@H](C)NC3=O)C(=O)N[C@@H](C(C)C)C(=O)N[C@@H](Cc1ccc(O)cc1)C(=O)N[C@@H](CC(C)C)C(=O)N1CCC[C@H]1C(=O)N2  Kd (POPC/POPE lipid membrane; membrane binding, surface plasmon resonance; POPC/POPE 80:20 vesicles; pH 7.4): 6.89 ± 0.36 µM
CC[C@H](C)[C@H](NC(=O)[C@H](CC(C)C)NC(=O)[C@H](CCCNC(=N)N)NC(=O)c1ccc(CN2CCN(C)CC2)cc1)C(=O)N[C@@H](Cc1ccccc1)C(N)=O  Kd (Cyclin-A2 (CCNA2, Homo sapiens, UniProt P20248); binding, tryptophan fluorescence titration; expressed without chaperones): 3.55 ± 0.361 µM
Cc1ncsc1-c1ccc([C@H](C)NC(=O)[C@@H]2C[C@@H](O)CN2C(=O)[C@@H](NC(=O)[C@H]2C[C@H](C(=O)N3CCC(c4cc(Nc5cc(C#N)ccn5)nc(N5CCC(F)(F)C5)c4)CC3)C2)C(C)(C)C)cc1  Kd (MAP3K13 (Homo sapiens, UniProt O43283); binding, competition with immobilised ligand): 0.071 µM
NC(=O)[C@@H](CCC(=O)O)NC(=O)[C@@H](CCC(=O)O)NC(=O)[C@@H](CCC(=O)O)NC(=O)[C@@H](CCC(=O)O)NC(=O)[C@@H](CCC(=O)O)NC(=O)[C@@H](CCC(=O)O)NC(=O)[C@@H](CCC(=O)O)NC(=O)[C@@H](CCC(=O)O)NC(=O)CCC(=O)O  Kd (r9; binding, ITC; pH 7.40, 37 °C): ~6 µM
C[n+]1cn([C@@H]2O[C@H](COP(=O)(O)OP(=O)(O)CP(=O)(O)O)[C@@H](O)[C@H]2O)c2nc(N)nc([O-])c21  Kd (Eukaryotic translation initiation factor 4E, residues 28-217 (Eif4e, Mus musculus, UniProt P63073); binding, fluorescence quenching titration; pH 7.2, 20 °C): 0.0513 µM
CC#Cc1cc2c3c(c1)O[C@H](CO)[C@H](O)[C@@H]3OC2  Kd (Galectin-8 (LGALS8, Homo sapiens, UniProt O00214); cell-free assay, FP): 440 µM

For quick reference, copied from above:
CC[C@H](C)[C@H](NC(=O)[C@@H]1CCCN1C(=O)[C@H](Cc1c[nH]cn1)NC(=O)[C@@H](NC(=O)[C@H](Cc1ccc(O)c(I)c1)NC(=O)[C@@H](NC(=O)[C@H](CCCNC(=N)N)NC(=O)CNC)C(C)C)[C@@H](C)CC)C(=O)O [iodine-125 labelled]  Kd (angiotensin II receptor type 1, rat; binding, saturation radioligand binding; female rat, estrus, liver membranes): 0.00042 µM and 0.00093 µM
Cc1cn(C2CC(O)C(COP(=O)(O)OP(=O)(O)C(Br)P(=O)(O)O)O2)c(=O)[nH]c1=O (mixture of isomers)  Kd (DNA polymerase beta (POLB, Homo sapiens, UniProt P06746, I260M); substrate, single turnover kinetics; 37 °C): 6.2 ± 0.5 µM
